Measured values collected from several papers.
A part holds a random share of what one study measured.
Chain of UniProt P05771 (whole entry, looked up): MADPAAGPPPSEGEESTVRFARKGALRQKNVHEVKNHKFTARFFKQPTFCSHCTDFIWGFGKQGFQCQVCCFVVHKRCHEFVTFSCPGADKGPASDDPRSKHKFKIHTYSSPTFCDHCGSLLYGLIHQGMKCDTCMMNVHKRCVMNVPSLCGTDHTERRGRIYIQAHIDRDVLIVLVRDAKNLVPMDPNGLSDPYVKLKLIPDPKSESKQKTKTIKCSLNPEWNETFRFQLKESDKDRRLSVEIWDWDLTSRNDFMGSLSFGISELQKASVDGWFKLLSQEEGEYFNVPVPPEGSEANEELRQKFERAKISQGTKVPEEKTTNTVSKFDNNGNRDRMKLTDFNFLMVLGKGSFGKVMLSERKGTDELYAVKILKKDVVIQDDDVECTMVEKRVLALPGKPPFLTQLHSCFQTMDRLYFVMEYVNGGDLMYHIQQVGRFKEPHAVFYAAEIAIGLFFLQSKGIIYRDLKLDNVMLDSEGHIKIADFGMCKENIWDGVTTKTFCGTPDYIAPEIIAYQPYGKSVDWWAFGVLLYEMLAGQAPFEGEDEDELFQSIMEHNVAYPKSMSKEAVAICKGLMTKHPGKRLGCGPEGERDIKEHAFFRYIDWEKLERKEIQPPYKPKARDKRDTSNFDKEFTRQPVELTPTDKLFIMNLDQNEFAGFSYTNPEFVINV
Chain of UniProt Q13976 (whole entry, looked up): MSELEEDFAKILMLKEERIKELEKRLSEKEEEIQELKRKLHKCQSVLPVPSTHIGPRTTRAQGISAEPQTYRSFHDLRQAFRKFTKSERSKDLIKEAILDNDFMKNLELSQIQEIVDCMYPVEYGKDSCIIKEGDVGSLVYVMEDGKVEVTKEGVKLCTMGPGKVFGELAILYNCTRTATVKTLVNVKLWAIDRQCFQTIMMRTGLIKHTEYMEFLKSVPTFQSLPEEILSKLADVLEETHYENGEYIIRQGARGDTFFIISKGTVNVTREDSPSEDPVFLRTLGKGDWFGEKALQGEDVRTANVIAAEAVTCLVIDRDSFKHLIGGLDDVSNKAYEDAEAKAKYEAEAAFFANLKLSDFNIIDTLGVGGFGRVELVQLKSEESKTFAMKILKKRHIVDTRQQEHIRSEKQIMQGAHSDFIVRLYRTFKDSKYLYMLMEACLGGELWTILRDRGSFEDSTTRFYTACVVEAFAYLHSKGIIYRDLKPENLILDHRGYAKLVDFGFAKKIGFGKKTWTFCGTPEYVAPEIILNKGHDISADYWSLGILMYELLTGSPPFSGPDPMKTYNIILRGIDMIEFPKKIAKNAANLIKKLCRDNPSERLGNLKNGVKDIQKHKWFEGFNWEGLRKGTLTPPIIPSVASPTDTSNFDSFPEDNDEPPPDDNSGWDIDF
Chain of UniProt O95747 (whole entry, looked up): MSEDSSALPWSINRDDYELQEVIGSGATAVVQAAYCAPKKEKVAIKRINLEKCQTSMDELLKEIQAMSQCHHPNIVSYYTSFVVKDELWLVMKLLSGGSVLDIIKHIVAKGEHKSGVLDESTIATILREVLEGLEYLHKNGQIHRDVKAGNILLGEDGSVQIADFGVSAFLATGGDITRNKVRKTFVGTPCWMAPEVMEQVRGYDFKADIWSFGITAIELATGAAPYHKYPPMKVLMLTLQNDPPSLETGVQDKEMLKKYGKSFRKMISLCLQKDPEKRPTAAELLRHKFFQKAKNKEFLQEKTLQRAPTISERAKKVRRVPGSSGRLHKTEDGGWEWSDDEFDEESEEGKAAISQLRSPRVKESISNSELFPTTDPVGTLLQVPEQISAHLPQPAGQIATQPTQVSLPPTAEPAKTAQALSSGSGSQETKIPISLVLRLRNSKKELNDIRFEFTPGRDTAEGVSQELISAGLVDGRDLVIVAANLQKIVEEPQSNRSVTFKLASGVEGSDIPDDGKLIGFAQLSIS
Chain of UniProt P51955 (whole entry, looked up): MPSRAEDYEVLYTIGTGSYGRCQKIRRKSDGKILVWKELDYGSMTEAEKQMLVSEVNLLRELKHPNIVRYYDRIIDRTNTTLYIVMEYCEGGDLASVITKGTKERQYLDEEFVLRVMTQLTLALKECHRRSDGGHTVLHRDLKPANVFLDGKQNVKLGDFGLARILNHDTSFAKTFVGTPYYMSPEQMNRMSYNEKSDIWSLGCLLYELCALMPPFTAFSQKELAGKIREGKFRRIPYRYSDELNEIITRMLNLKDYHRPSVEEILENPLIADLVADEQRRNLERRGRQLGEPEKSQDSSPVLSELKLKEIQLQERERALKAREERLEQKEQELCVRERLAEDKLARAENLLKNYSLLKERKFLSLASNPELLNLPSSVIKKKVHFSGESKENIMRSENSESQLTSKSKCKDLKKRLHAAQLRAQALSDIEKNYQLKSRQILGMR

Block 1 — cell line: HEK-293T/ACE2; concentration: concentration not given; time: 16 (unit not given); baseline: vehicle; measurement: viability
C[N+]1(C)[C@@H]2CC[C@H]1C[C@@H](OC(=O)C(O)c1ccccc1)C2 (stereo partly shown): 99.6%
CC(CN1c2ccccc2Sc2ccccc21)N(C)C (stereo not shown): 98.2%
CCOC(=O)CC(SP(=S)(OC)OC)C(=O)OCC (stereo not shown): 98.1%
C[C@H](O)C(=O)Nc1c(I)c(C(=O)NC(CO)CO)c(I)c(C(=O)NC(CO)CO)c1I: 101%
CNC(=C[N+](=O)[O-])NCCSCc1csc(CN(C)C)n1: 99.4%
CC1(C)O[C@@H]2C[C@H]3[C@@H]4C[C@H](F)C5=CC(=O)C=C[C@]5(C)[C@@]4(F)[C@@H](O)C[C@]3(C)[C@]2(C(=O)CO)O1: 103%
OC(CNCC(O)C1CCc2cc(F)ccc2O1)C1CCc2cc(F)ccc2O1 (stereo not shown): 102%
CN(C)CCC(c1ccccc1)c1ccccn1 (stereo not shown): 99.1%
CCCOc1ccc(C(=O)OCCN(CC)CC)cc1N: 99.1%
Nc1c(CC(=O)O)cccc1C(=O)c1ccc(Br)cc1: 100%
COc1ccc(C(CN(C)C)C2(O)CCCCC2)cc1 (stereo not shown): 99.7%
O=C1NC(=O)C(c2ccccc2)(c2ccccc2)N1: 100%
CC(=O)NCCCS(=O)(=O)O: 99.4%
CC1=CC(=O)c2ccccc2C1=O: 95.6%
C[N+](C)(C)CCOC(N)=O: 101%
CC1=C(CC(=O)O)c2cc(F)ccc2/C1=C\c1ccc([S+](C)[O-])cc1 (stereo not shown): 100%
COc1cc2nc(N(C)CCCNC(=O)C3CCCO3)nc(N)c2cc1OC (stereo not shown): 98.1%
C#Cc1cccc(Nc2ncnc3cc(OCCOC)c(OCCOC)cc23)c1: 100%

Block 2 — read-out: enzyme activity; mode: inhibitor; concentration: 77 µM; measurement: remaining activity
Target: DNA polymerase theta, ATPase domain (POLQ, Homo sapiens, UniProt O75417)
Chain of UniProt O75417 (whole entry, unmodified, looked up): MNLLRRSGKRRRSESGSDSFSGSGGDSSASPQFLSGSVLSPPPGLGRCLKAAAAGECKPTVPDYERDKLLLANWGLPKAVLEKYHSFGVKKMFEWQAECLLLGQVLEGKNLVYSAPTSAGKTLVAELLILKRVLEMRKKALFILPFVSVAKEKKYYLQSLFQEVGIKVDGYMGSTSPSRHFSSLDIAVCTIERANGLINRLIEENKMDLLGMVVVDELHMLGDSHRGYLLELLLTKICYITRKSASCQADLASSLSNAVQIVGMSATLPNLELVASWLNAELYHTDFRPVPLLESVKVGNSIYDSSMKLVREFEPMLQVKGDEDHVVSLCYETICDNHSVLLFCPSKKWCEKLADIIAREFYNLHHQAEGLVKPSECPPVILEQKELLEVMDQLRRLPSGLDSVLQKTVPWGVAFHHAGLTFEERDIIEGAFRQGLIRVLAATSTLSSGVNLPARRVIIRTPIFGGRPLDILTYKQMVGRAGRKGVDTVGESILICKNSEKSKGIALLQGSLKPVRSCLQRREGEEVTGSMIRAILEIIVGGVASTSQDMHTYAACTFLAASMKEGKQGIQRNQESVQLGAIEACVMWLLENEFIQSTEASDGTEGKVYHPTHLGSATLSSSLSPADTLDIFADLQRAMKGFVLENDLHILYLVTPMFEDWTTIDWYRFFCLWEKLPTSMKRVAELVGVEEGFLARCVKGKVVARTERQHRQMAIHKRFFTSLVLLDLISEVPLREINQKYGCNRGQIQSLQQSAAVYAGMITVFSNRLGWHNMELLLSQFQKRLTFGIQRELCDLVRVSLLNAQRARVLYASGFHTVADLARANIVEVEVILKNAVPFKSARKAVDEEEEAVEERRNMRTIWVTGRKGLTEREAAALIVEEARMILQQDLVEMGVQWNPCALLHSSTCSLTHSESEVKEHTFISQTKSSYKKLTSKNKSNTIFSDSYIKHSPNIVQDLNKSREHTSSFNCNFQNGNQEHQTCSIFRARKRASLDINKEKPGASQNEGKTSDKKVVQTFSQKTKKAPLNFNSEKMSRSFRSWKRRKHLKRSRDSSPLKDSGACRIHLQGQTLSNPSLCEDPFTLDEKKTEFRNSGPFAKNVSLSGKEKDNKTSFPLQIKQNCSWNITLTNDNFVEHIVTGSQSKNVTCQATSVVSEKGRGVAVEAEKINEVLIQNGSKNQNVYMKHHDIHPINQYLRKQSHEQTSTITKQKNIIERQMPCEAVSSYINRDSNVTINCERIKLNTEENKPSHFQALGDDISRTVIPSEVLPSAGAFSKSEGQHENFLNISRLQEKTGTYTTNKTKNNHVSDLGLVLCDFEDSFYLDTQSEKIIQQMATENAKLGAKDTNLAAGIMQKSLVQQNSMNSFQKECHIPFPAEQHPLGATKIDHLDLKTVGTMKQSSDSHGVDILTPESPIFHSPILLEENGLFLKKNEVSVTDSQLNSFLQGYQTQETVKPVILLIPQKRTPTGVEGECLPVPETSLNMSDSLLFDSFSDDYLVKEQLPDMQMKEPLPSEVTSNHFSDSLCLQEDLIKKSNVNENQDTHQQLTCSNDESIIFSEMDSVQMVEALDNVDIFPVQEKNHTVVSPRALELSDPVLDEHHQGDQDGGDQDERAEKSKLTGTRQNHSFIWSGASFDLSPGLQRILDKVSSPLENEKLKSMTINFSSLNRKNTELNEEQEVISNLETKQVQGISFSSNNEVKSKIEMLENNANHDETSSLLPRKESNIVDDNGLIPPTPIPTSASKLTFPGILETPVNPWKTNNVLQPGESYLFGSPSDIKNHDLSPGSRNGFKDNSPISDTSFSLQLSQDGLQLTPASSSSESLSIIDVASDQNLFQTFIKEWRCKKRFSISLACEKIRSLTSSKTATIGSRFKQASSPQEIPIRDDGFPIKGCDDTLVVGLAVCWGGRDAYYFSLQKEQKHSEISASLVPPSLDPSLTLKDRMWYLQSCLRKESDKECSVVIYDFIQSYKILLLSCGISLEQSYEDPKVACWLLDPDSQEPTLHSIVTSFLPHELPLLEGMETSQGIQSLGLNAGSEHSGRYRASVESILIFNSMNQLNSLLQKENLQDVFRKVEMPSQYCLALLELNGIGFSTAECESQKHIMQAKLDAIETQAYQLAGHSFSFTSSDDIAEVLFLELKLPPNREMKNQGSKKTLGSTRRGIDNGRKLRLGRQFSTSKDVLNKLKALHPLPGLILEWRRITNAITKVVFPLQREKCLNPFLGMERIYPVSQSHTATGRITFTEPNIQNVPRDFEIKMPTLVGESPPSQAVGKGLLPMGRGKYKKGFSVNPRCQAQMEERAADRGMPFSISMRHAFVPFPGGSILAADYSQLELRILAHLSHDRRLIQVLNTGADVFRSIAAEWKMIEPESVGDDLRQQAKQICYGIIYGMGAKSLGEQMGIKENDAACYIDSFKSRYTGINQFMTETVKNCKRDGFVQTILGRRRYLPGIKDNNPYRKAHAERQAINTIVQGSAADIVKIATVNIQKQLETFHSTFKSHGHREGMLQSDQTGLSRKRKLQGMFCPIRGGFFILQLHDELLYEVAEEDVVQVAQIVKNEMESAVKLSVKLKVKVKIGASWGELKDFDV
CN1CCC2(C)c3cc(O)ccc3N(C)C12 (single isomer, unassigned; (-)): 100%
CCOC(=O)c1ncn2c1[C@@H]1CCCN1C(=O)c1cc(OC)ccc1-2: 102%
S=C(NC1CCCCC1)N1CCC(c2cnc[nH]2)CC1: 102%
NC(=O)c1ccc(OCC(O)CN2CC=C(c3ccc(F)cc3)CC2)cc1 (stereo not shown): 99.4%
Cc1ccccc1-n1c(Cn2cnc3c(N)ncnc32)nc2cccc(C)c2c1=O: 111%
C1=C2CCCN[C@H]2[C@@H]2C[C@H]1[C@H]1CCCCN1C2: 102%
O=C1C=CC(=O)c2c1ccc1c2ccc2ccccc21: 102%
C[C@]12CC[C@H]3[C@@H](CC[C@]4(O)C[C@@H](O)CC[C@]34C=O)[C@@]1(O)CC[C@@H]2C1=CC(=O)OC1: 101%
CN1CCc2cc(O)cc3c2[C@H]1Cc1ccc(O)c(O)c1-3: 103%
CN(C)Cc1c[nH]c2ccccc12: 102%
C[N+](C)(C)CC#CCOC(=O)Nc1cccc(Cl)c1: 104%

Block 3 — read-out: enzyme activity; mode: inhibitor; concentration: 0.5 µM; baseline: control; measurement: remaining activity
SMILES: COC[C@H]1OC(=O)c2coc3c2[C@@]1(C)C1=C(C3=O)[C@@H]2CCC(=O)[C@@]2(C)C[C@H]1OC(C)=O
Serine/threonine-protein kinase OSR1 (OXSR1, Homo sapiens, UniProt O95747): 99.6%
Serine/threonine-protein kinase Nek2 (NEK2, Homo sapiens, UniProt P51955): 89.2%
Cyclin-dependent kinase 5, with p25 (CDK5, Homo sapiens, UniProt Q00535): 87.6%
Mitogen-activated protein kinase 9 (MAPK9, Homo sapiens, UniProt P45984): 100%
Protein kinase C beta type, isoform beta-I (PRKCB, Homo sapiens, UniProt P05771): 101%
Calcium/calmodulin-dependent protein kinase type II subunit delta (CAMK2D, Homo sapiens, UniProt Q13557): 98.1%
Serine/threonine-protein kinase 10 (STK10, Homo sapiens, UniProt O94804): 87.3%
G protein-coupled receptor kinase 3 (GRK3, Homo sapiens, UniProt P35626): 92.8%
TGF-beta receptor type-2 (TGFBR2, Homo sapiens, UniProt P37173): 104%
STE20/SPS1-related proline-alanine-rich protein kinase (STK39, Homo sapiens, UniProt Q9UEW8): 96.5%
cGMP-dependent protein kinase 1, isoform beta (PRKG1, Homo sapiens, UniProt Q13976): 98.3%
Tyrosine-protein kinase Lyn, isoform B (LYN, Homo sapiens, UniProt P07948): 98.5%
Inhibitor of nuclear factor kappa-B kinase subunit epsilon (IKBKE, Homo sapiens, UniProt Q14164): 98%

Block 4 — cell line: HaCaT; concentration: 100 µM; time: 36 h; measurement: viability
CC(C)c1cccc(C(C)C)c1O: 46.4%
CCN1CC2(COC)CCC(OC)C34C5CC6(O)C(OC)CC(OC(C)=O)(C5C6C(=O)c5ccc(OC)cc5)C(C(OC)C23)C14 (stereo not shown): 95.9%
C[C@@H]1CC[C@@]2(OC1)O[C@H]1[C@@H](O)[C@H]3[C@@H]4CC[C@H]5C[C@@H](O[C@@H]6O[C@H](CO)[C@H](O[C@@H]7O[C@H](CO)[C@@H](O)[C@H](O[C@@H]8OC[C@@H](O)[C@H](O)[C@H]8O)[C@H]7O[C@@H]7O[C@H](CO)[C@H](O)[C@H](O[C@@H]8O[C@H](CO)[C@@H](O)[C@H](O)[C@H]8O)[C@H]7O)[C@H](O)[C@H]6O)[C@H](O)C[C@]5(C)[C@H]4CC[C@]3(C)[C@H]1[C@@H]2C: 4.43%
NC(=O)CN1CC(O)CC1=O (stereo not shown): 96.6%

Repeated from above (block 1):
C[N+]1(C)[C@@H]2CC[C@H]1C[C@@H](OC(=O)C(O)c1ccccc1)C2 (stereo partly shown): 99.6%
CC1=C(CC(=O)O)c2cc(F)ccc2/C1=C\c1ccc([S+](C)[O-])cc1 (stereo not shown): 100%
CN(C)CCC(c1ccccc1)c1ccccn1 (stereo not shown): 99.1%
COc1cc2nc(N(C)CCCNC(=O)C3CCCO3)nc(N)c2cc1OC (stereo not shown): 98.1%
